Results pooled from the literature.
Protocols differ between the studies behind these lines. Several values in a cell are separate wells, animals, samples, runs or records. Numbers after ± are the reported error.
TDP1: Tyrosyl-DNA phosphodiesterase 1 (TDP1, Homo sapiens, UniProt Q9NUW8)
NIT1: NIT1 (Homo sapiens, UniProt Q86X76)
CASP6: Caspase-6 (CASP6, Homo sapiens, UniProt P55212)
Uncharacterized protein: Uncharacterized protein (Trypanosoma brucei brucei, UniProt Q386Q8)
Gria1: Glutamate receptor 1 (Gria1, Rattus norvegicus, UniProt P19490)

CC(/C=C/C(=O)NO)=C\[C@@H](C)C(=O)c1ccc(N(C)C)cc1
binding stoichiometry (Histone deacetylase 8 (HDAC8, Homo sapiens, UniProt Q9BY41); ITC; Tris-HCl buffer; concentration not given, 293 K): 0.9

COc1ccnc(C)c1C
ΔTm (Nicotinamide N-methyltransferase, SAM-bound (NNMT, Homo sapiens, UniProt P40261); differential scanning fluorimetry; 1 mM, together with: 100 µM SAM): 2.1 °C

CC(C)[C@@H]1NC(=O)[C@H](Cc2ccccc2)NC(=O)CSC[C@@H](C(N)=O)NC(=O)[C@H](CCC(=O)O)NC(=O)[C@H](CO)NC(=O)[C@H](Cc2c[nH]c3cccc(Cl)c23)NC(=O)[C@H](C2CCCCC2)NC(=O)[C@H](C(C)C)NC(=O)[C@H](Cc2ccc(O)cc2)NC(=O)[C@H](CC(=O)O)NC(=O)[C@H](Cc2c[nH]c3ccccc23)NC(=O)[C@H](Cc2ccc(N)nc2)NC(=O)[C@H](Cc2c[nH]c3ccc(Cl)cc23)NC(=O)[C@H](CCC(=O)O)NC1=O
remaining activity (Interleukin-1 receptor-like 2 (IL1RL2, Homo sapiens, UniProt Q9HB29); reporter gene (SEAP), inhibitor, HEK-Blue IL-36R reporter; HEK-Blue IL-36R cells; 3.7 µM, 6 h, together with: IL-36β 30 ng/mL): 93.8%

O=C(O)c1ccc(Nc2c(-c3ccccc3)nc3ccc(CON=Cc4cc5ccccc5s4)cn23)cc1 (mixture of isomers)
inhibition (TDP1; enzyme activity, inhibitor; 100 µM, unpurified compound): 25.1%

Clc1ccc(Nc2nc(NC3CCCCC3)c3ccccc3n2)cc1Cl
bias factor (Beta-2 adrenergic receptor (ADRB2, Homo sapiens, UniProt P07550); β-arrestin2 recruitment, PathHunter and GloSensor; baseline: GloSensor IC50 over PathHunter IC50): > 15 fold

NC(=O)c1cccc(CN(C(=O)NC(CN2CCCCC2)c2ccccc2)C(CN2CCCCC2)c2ccccc2)c1 (centres unmarked)
log(tau/KA) (Kappa-type opioid receptor (OPRK1, Homo sapiens, UniProt P41145); beta-arrestin recruitment): 5.42

CCCCCC=CC=C1C(=O)C=CC1CC=CCCCC(=O)O (centres unmarked)
isoTOP-ABPP competition ratio (NIT1; competitive isoTOP-ABPP; Ramos soluble proteome; 100 µM, 60 min, together with: iodoacetamide probe; baseline: DMSO over compound-treated, higher = stronger cysteine blockade): 12

O=C(O)c1ccc(Nc2c(-c3ccc(CON=Cc4cc(O)ccc4O)cc3)nc3cc(-c4ccccc4)ccn23)cc1
inhibition (TDP1; enzyme activity, inhibitor; 100 µM, unpurified compound): 87%

COC(=O)[C@@]1(C)C=C(C(=O)Nc2cccc(C(=O)Nc3ccc(Nc4nccc(-c5cccnc5)n4)c(C)c3)c2)C(=O)CC1
normalized fluorescence polarization (Mitogen-activated protein kinase 8, docking groove (MAPK8, Homo sapiens, UniProt P45983); peptide binding, inhibitor, fluorescence polarization; 6.25 µM, together with: JIP1 peptide probe): 0.876

CCCCOc1ccc(C(=O)OCCN2CC=CCC2)cc1
basal binding (Muscarinic acetylcholine receptor M5 (CHRM5, Homo sapiens, UniProt P08912); membranes; 1 µM, 15 h, no carbachol; baseline: control): 1.11 ± 0.03 fold

CC(C)Oc1cc(Cl)ccc1CNc1cc(-c2ccccc2)nc2ncnn12
cAMP luminescence (G-protein coupled receptor 3 (GPR3, Homo sapiens, UniProt P46089, I200W); cAMP GloSensor; human cells; 10 µM; higher is more cAMP): 15200 a.u. and 22600 a.u. and 16900 a.u. and 17400 a.u.

CC(=O)N[C@@H](CC(C)C)C(=O)N[C@@H](CCC(=O)O)C(=O)N[C@@H](COCc1ccccc1)C(=O)N[C@@H](CC(=O)O)C(=O)COC(=O)c1c(C)cccc1C
kinact/KI (CASP6; enzyme activity, inhibitor): 351000 M⁻¹ s⁻¹

C/C(=C/CC[C@@H](C)[C@H]1CC[C@@]2(C)C3=CC[C@H]4C(C)(C)C(=O)CC[C@]4(C)C3=C[C@@H](O[C@@H]3O[C@H](CO)[C@@H](O)[C@H](O)[C@H]3O)[C@]12C)C(=O)O
threshold concentration (Taste receptor type 2 member 46 (TAS2R46, Homo sapiens, UniProt P59540); agonist, calcium mobilisation FLIPR; HEK cells with Gα16gust44; pH 7.4, lowest significant vs empty vector): 3 µM

O=C(O)c1ccc(Nc2c(-c3ccccc3)nc3ccc(CON=Cc4c(N5CCCC5)nc5ccccn45)cn23)cc1
inhibition (TDP1; enzyme activity, inhibitor; 100 µM, unpurified compound): -2.8%

Cc1cnc2nc1Nc1cccc(c1)COC/C=C/COCc1cc(ccc1OCCN1CCOCC1)N2
remaining binding (Tyrosine-protein kinase JAK1 (JAK1, Homo sapiens, UniProt P23458); kinase binding panel; concentration not given): 8.5%

COc1ccc(C(=O)CC2(O)C(=O)Nc3cc(Cl)cc(Cl)c32)c(OC)c1 (centres unmarked)
Hill slope (Uncharacterized protein; inhibitor, coupled colorimetric; Trypanosoma brucei): -1.01

C[C@@H](Nc1nc(N[C@H](C)C(F)(F)F)nc(-c2cccc(Cl)n2)n1)C(F)(F)F
maximal inhibition (Isocitrate dehydrogenase [NADP] cytoplasmic (IDH1, Homo sapiens, UniProt O75874, R132H); enzyme activity; heterodimer): 100%

O=C(O)c1ccc(Nc2c(-c3ccccc3)nc3ccc(CON=Cc4cc(C(F)(F)F)ccc4F)cn23)cc1 (mixture of isomers)
inhibition (TDP1; enzyme activity, inhibitor; 100 µM, unpurified compound): -3.2%

Cc1ccc(S(=O)(=O)N2CCC2=O)cc1
IC50 (Rhomboid protease GlpG (glpG, Escherichia coli, UniProt P09391); enzyme activity, inhibitor, gel-based chimeric protein substrate): inactive

CCCCCCCCCCCCC/C=C/C=O
isoTOP-ABPP competition ratio (Heterogeneous nuclear ribonucleoprotein F (Homo sapiens, UniProt P52597); competitive isoTOP-ABPP, measured: HNRPF cysteine peptide; Ramos soluble proteome; 100 µM, together with: iodoacetamide probe; baseline: DMSO over compound-treated, higher = stronger cysteine blockade): 1

CC[C@H](C)[C@@H]1NC(=O)[C@H](Cc2c[nH]c3ccccc23)NC(=O)[C@H](Cc2ccccc2)N(C)C(=O)[C@H](C(C)C)NC(=O)[C@H](CC(C)C)NC(=O)[C@H](Cc2ccccc2)NC(=O)CSC[C@@H](C(=O)N[C@@H](CC(N)=O)C(N)=O)NC(=O)[C@H](Cc2ccccc2)NC1=O
ΔTm (Bromodomain-containing protein 4, BD1 (BRD4, Homo sapiens, UniProt O60885); thermal stability, DSF; 200 µM): 1.34 °C

C#CCOC(=O)[C@@]1(C)C=C(C(=O)OC(C)(C)C)C(=O)CC1
normalized kinase activity (Mitogen-activated protein kinase 1 (MAPK1, Homo sapiens, UniProt P28482); enzyme activity, D-SENSOR; 0.06097 µM, single replicate): 1.06 and 1.09 and 1.31

CC(=O)N[C@H](C(=O)N[C@@H](CCCC(=O)O)C(=O)N[C@@H](CCC1CCCCC1)C(=O)N[C@@H](CC(=O)O)C(=O)COC(=O)c1c(C)cccc1C)C(C)(C)C
kinact/KI (CASP6; enzyme activity, inhibitor): 279000 M⁻¹ s⁻¹

Cn1cc(-c2cc(N3CCCCS3(=O)=O)ccc2N[C@H]2CC[C@H](C)CC2)c2cc[nH]c2c1=O (stereo in doubt)
remaining binding (Bromodomain-containing protein 1, bromodomain (BRD1, Homo sapiens, UniProt O95696); binding, competition with immobilised ligand; 1 µM): 95%

COc1cc(C=NOCc2ccc3nc(-c4ccccc4)c(Nc4ccc(C(=O)O)cc4)n3c2)ccc1F (mixture of isomers)
inhibition (TDP1; enzyme activity, inhibitor; 100 µM, unpurified compound): -13.6%

COC(=O)Cc1cc2c(cc1C(=O)c1ccccc1Cl)OCO2
current amplitude (Gria1; glutamate-evoked current, whole-cell patch clamp; HEK-293T; concentration not given, pH 7.4, holding potential -60 mV, together with: 10 mM glutamate): 364 ± 26 pA

Cc1cc(-n2c(C)cc(C=NOCc3ccc4nc(-c5ccccc5)c(Nc5ccc(C(=O)O)cc5)n4c3)c2C)no1 (mixture of isomers)
inhibition (TDP1; enzyme activity, inhibitor; 100 µM, unpurified compound): 10.8%

O=C(O)Cc1cc2c(cc1C(=O)c1ccc(Cl)cc1Cl)OCO2
current amplitude (Gria1; glutamate-evoked current, whole-cell patch clamp; HEK-293T; concentration not given): 100 ± 7 pA

N[C@H]1CC[C@H](Nc2nccc(-c3cccnc3Oc3ccc(NC(=O)NC4CC4)c4ccccc34)n2)CC1
log2 LFQ intensity (Core histone macro-H2A.1 (MACROH2A1, Homo sapiens, UniProt O75367); kinobead competition pulldown, measured: H2AFY; HEK293/HCT116 lysate mixture; 10 µM, 1 h, 4 °C; lower = stronger competition): 18.2 and 20.8 and 20.6 and 19

O=C1c2sc(-c3ccc(N4CCC(F)C4)nc3F)nc2CCN1c1cccnc1 (centres unmarked)
inhibition (5-hydroxytryptamine receptor 4, isoform 5-HT4e (HTR4, Homo sapiens, UniProt Q13639); radioligand binding, antagonist; 1 µM): -12%

O=C(O)c1ccc(Nc2c(-c3ccccc3)nc3ccc(CON=Cc4cccc5[nH]ccc45)cn23)cc1 (mixture of isomers)
inhibition (TDP1; enzyme activity, inhibitor; 100 µM, unpurified compound): 39.7%

O=[N+]([O-])c1cc(Br)cc([N+](=O)[O-])c1NS(=O)(=O)c1ccc(Br)cc1
phosphatase activity (HAB1 (Arabidopsis thaliana, UniProt Q9CAJ0); inhibitor; 100 µM, no PYL receptor; higher = more activity): 1.01 a.u. and 1.13 a.u. and 0.971 a.u.

N#CN1CC[C@H](C(=O)Nc2nc3c(s2)CN(C(=O)CN=[N+]=[N-])CC3)C1
total spectral count (Alpha-enolase (ENO1, Homo sapiens, UniProt P06733); click pull-down LC-MS/MS; HEK293T cells): 8

CC(=O)N1C[C@H](O)C[C@H]1C(=O)N[C@H](C(=O)N[C@@H](CO)C(=O)N[C@@H](CC(=O)O)C(=O)COC(=O)c1c(C)cccc1C)C(C)(C)C
kinact/KI (CASP6; enzyme activity, inhibitor): 900 M⁻¹ s⁻¹

O=C1c2sc(-c3ccc(N4CCC(CO)CC4)nc3F)nc2CCN1c1cccnc1
inhibition (L-type Ca2+ channel, phenylalkylamine (verapamil) site; radioligand binding, BioPrint binding panel; 1 µM, together with: antagonist radioligand): -12%

O=C(O)Cc1cc2c(cc1C(=O)c1ccccc1I)OCO2
desensitization time constant (Gria1; whole-cell patch clamp; HEK-293T; concentration not given, together with: glutamate): 1.8 ± 0.1 ms

CC(=O)c1cnc(N)nc1N1CC[C@H]1c1nn2ccc(Cl)c2c(=O)n1-c1ccccc1
remaining binding (Phosphatidylinositol 4,5-bisphosphate 3-kinase catalytic subunit delta isoform (PIK3CD, Homo sapiens, UniProt O00329); binding, competition with immobilised ligand; 10 µM): 3.5%

c1ccc(C2=Nn3c(nnc3C3CCCCC3)SC2)cc1
Hill slope (Uncharacterized protein; inhibitor, coupled colorimetric; Trypanosoma brucei): 3.22

CCCCCC(O)/C=C/C=O (centres unmarked)
isoTOP-ABPP competition ratio (NIT1; competitive isoTOP-ABPP; Ramos soluble proteome; 100 µM, 60 min, together with: iodoacetamide probe; baseline: DMSO over compound-treated, higher = stronger cysteine blockade): 1.4

CC(=O)N[C@@H](CC(=O)O)C(=O)N[C@@H](CCCC(=O)O)C(=O)N[C@@H](CC(C)C)C(=O)N[C@@H](CC(=O)O)C(=O)COC(=O)c1c(C)cccc1C
kinact/KI (CASP6; enzyme activity, inhibitor): 243000 M⁻¹ s⁻¹

O=C(CCNC(=O)CNC(=O)CC(c1ccccc1)(c1ccccc1)c1ccccc1)NC[C@@H]1CCCN(Cc2ccc(F)cc2)C1
selectivity ratio (Muscarinic acetylcholine receptor M3 (CHRM3, Homo sapiens, UniProt P20309); [3H]N-methylscopolamine competition; baseline: M1 over M3 Ki): > 45

O=C(O)c1ccc(Nc2c(-c3ccc(CON=Cc4ccc(COc5c(F)c(F)cc(F)c5F)o4)cc3)nc3cc(-c4ccccc4)ccn23)cc1 (mixture of isomers)
inhibition (TDP1; enzyme activity, inhibitor; 100 µM, unpurified compound): 36.9%

CC(=O)N[C@@H](CC(=O)O)C(=O)N[C@@H](CCCC(=O)O)C(=O)N1[C@H](C(=O)N[C@@H](CC(=O)O)C(=O)COC(=O)c2c(C)cccc2C)C[C@@H]2CCCC[C@@H]21
kinact/KI (CASP6; enzyme activity, inhibitor): 80000 M⁻¹ s⁻¹

COC(=O)Cc1cc2c(cc1C(=O)c1ccccc1Br)OCO2
deactivation time constant (Gria1; glutamate-evoked current, whole-cell patch clamp; HEK-293T; concentration not given, weighted tau, 1 ms pulse, together with: glutamate): 2.7 ± 0.1 ms

For quick reference, copied from above:
Cc1cc(-n2c(C)cc(C=NOCc3ccc4nc(-c5ccccc5)c(Nc5ccc(C(=O)O)cc5)n4c3)c2C)no1 (mixture of isomers)
inhibition (TDP1; enzyme activity, inhibitor; 100 µM, unpurified compound): 10.8%

O=C(O)Cc1cc2c(cc1C(=O)c1ccc(Cl)cc1Cl)OCO2
current amplitude (Gria1; glutamate-evoked current, whole-cell patch clamp; HEK-293T; concentration not given): 100 ± 7 pA

N[C@H]1CC[C@H](Nc2nccc(-c3cccnc3Oc3ccc(NC(=O)NC4CC4)c4ccccc34)n2)CC1
log2 LFQ intensity (Core histone macro-H2A.1 (MACROH2A1, Homo sapiens, UniProt O75367); kinobead competition pulldown, measured: H2AFY; HEK293/HCT116 lysate mixture; 10 µM, 1 h, 4 °C; lower = stronger competition): 18.2 and 20.8 and 20.6 and 19

O=C1c2sc(-c3ccc(N4CCC(F)C4)nc3F)nc2CCN1c1cccnc1 (centres unmarked)
inhibition (5-hydroxytryptamine receptor 4, isoform 5-HT4e (HTR4, Homo sapiens, UniProt Q13639); radioligand binding, antagonist; 1 µM): -12%

O=C(O)c1ccc(Nc2c(-c3ccccc3)nc3ccc(CON=Cc4cccc5[nH]ccc45)cn23)cc1 (mixture of isomers)
inhibition (TDP1; enzyme activity, inhibitor; 100 µM, unpurified compound): 39.7%

O=[N+]([O-])c1cc(Br)cc([N+](=O)[O-])c1NS(=O)(=O)c1ccc(Br)cc1
phosphatase activity (HAB1 (Arabidopsis thaliana, UniProt Q9CAJ0); inhibitor; 100 µM, no PYL receptor; higher = more activity): 1.01 a.u. and 1.13 a.u. and 0.971 a.u.
